Assay results of several laboratories.
Compare with care: the assays were run in different laboratories.
Sample: plasma

Structure (SMILES) | species | route | dose | notes | endpoint | value
COC1C=COC2(C)Oc3c(C)c(O)c4c(c3C2=O)C2=NC3(CCN(CC(C)C)CC3)NC2=C(NC(=O)C(C)=CC=CC(C)C(O)C(C)C(O)C(C)C(OC(=O)c2cncnc2)C1C)C4=O (stereo not shown) | female CD-1 mouse | intravenous | 5 mg/kg |  | Vd | 2.4 L/kg
O=C(Cc1ccc(-c2ccc(OCCN3CCOCC3)cc2)cn1)NCc1ccc(F)cc1 | CD-1 mouse | intravenous | 2 mg/kg |  | Vd | 3.23 L/kg
COc1ccccc1NC(=O)OC1C(C)C(OC)C=COC2(C)Oc3c(C)c(O)c4c(c3C2=O)C2=NC3(CCN(CC(C)C)CC3)NC2=C(NC(=O)C(C)=CC=CC(C)C(O)C(C)C(O)C1C)C4=O (stereo not shown) | female CD-1 mouse | intravenous | 5 mg/kg |  | Vd | 4.5 L/kg
CCS(=O)(=O)c1ccccc1C(=O)N1CCN(c2nc3ccc(F)cc3s2)C[C@@H]1C | mouse | intravenous | 3 mg/kg |  | Vd | 3.5 L/kg
Cc1cc(C)c(S(=O)(=O)N(CC(=O)O)c2ccc(Nc3ccnc(N4CCCC4)n3)cc2)c(C)c1 | nude mouse | intraperitoneal | 100 mg/kg | single dose | Vd/F | 15.9 L/kg
COC(=O)c1ccc2c(c1)NC(=O)/C2=C(\Nc1ccc2c(c1)CCN2C(=O)CN1CCOCC1)c1ccccc1 | CD-1 mouse | intravenous | 10 mg/kg |  | Vd | 1.51 L/kg
Nc1ccn(C[C@@H](CO)OCP(=O)(O)OCCCS(=O)(=O)CCCCCCCCCCCCCC2CCC2)c(=O)n1 | mouse | intravenous | 3 mg/kg | single dose | Vd | 4 L/kg
COC1C=COC2(C)Oc3c(C)c(O)c4c(c3C2=O)C2=NC3(CCN(CC(C)C)CC3)NC2=C(NC(=O)C(C)=CC=CC(C)C(O)C(C)C(O)C(C)C(OC(=O)Nc2cscn2)C1C)C4=O (stereo not shown) | female CD-1 mouse | intravenous | 5 mg/kg |  | Vd | 1.5 L/kg
Cc1cc(O)cc(O)c1C(=O)c1c2c3c(c(O)cc(C)c3oc1=O)C(=O)c1c(O)cc(O)cc1-2 | male Kunming mouse | intraperitoneal | 30 mg/kg |  | Vd/F | 0.41 L/kg
Cc1ccc2oc(-c3c4c(N)n[nH]c(=O)c4nn3-c3ccc(NC(=O)/C=C/CN(C)C)cc3)c(C)c2c1 | mouse | intravenous | 1 mg/kg |  | Vd | 4.82 L/kg
COc1cccc2c1C(=O)c1c(O)c3c(c(O)c1C2=O)C[C@@](O)(C(=O)CO)C[C@@H]3O[C@H]1C[C@H](N)[C@@H](O)[C@H](C)O1 | male Kunming mouse | intravenous | 5 mg/kg |  | Vd | 1.11 L/kg
O=C1OC2(c3ccccc31)c1cc(I)c(O)c(I)c1Oc1c2cc(I)c(O)c1I | female C57BL/6 mouse | oral | 100 mg/kg |  | Vd/F | 504 L/kg
C=C(C)C(=O)Nc1ccc(-c2c(-c3ccc(Oc4nccc(C)n4)cc3)c3c(N)ncnc3n2C)cc1 | nude mouse | intravenous |  |  | Vd | 0.36 L/kg

For quick reference, copied from above:
Structure (SMILES) | species | route | dose | notes | endpoint | value
Cc1ccc2oc(-c3c4c(N)n[nH]c(=O)c4nn3-c3ccc(NC(=O)/C=C/CN(C)C)cc3)c(C)c2c1 | mouse | intravenous | 1 mg/kg |  | Vd | 4.82 L/kg
Cc1cc(C)c(S(=O)(=O)N(CC(=O)O)c2ccc(Nc3ccnc(N4CCCC4)n3)cc2)c(C)c1 | nude mouse | intraperitoneal | 100 mg/kg | single dose | Vd/F | 15.9 L/kg
